Experimental data collected from several papers.
Each line is one published result; not all experiments were run side by side. “And” joins repeats or separate records; there may be more than shown. ± marks the error that the study gave. No end group written: not given here.
B1: bicyclic; chain AATCHCRRSCYSTEYSYGTCTVMGINHRFCCL (also: bicyclic or more (positions not given here))
B2: disulfide; chain GLPVCGETCVGGTCNTPGCTCSWPVCTRN (disulfide (positions not given here))

Molecule	target or system	assay	system	setting	how to read	quantity	result
Rilpivirine docusate	–	–	Labrasol ALF	mean of three	–	kinetic solubility	> 500 mg/mL
B1	–	sedimentation velocity AUC	10 mM Tris-maleate	100 µM, pH 6.4, 20 °C	–	sedimentation coefficient S20,w	0.79 S
ESLSLSLSLSLSLEGKKDGDGDFAIDAPE	–	AFM	peptide, dried on mica from water	0.1 wt%	–	nanofibre width	10.2 ± 1.4 nm
[177Lu]Lu-DOTA-TATE	–	radio-HPLC	labelling formulation with quenchers	2 h, 50 MBq/nmol	–	radiochemical purity	97.6 ± 0.6%
regorafenib N-β-glucuronide	–	–	Oatp1b2 knockout mice	oral, regorafenib single dose, molecular weight corrected	–	metabolite to parent AUC ratio	3.84%
daptomycin	–	–	stock solution	24 months, -40 °C	–	recovery	101%
equol sulfate	–	–	human, cerebrospinal fluid	dose not given, mean	–	CSF concentration	not detected
Teicoplanin	–	UPLC-MS/MS	critically ill haematology patients, serum	dose not given	–	highest total concentration	98.5 mg/L
KTKEGVVHGVATVA	–	far-UV circular dichroism, refers to: α-helices	peptide, PBS	10 µM, pH 7.4, 25 °C	–	secondary structure content	0%
coproporphyrin I	–	–	human, plasma	concentration not given, control day	–	lowest mean plasma concentration	0.653 ± 0.041 nM
CTOP	–	RP-HPLC	HALO C18 column	25 µM, acetic acid/methanol, 25 min gradient	–	retention time	12.1 min
VMRLQSETSV	human MAGI1-3/6 PDZ construct (MBP fusion)	automated holdup	peptide, purified PDZ protein	concentration not given, unit not given	baseline: biotin control resin, higher = stronger binding	binding intensity	0.106
LVHYTHCGSLGV	Epstein-Barr virus	–	peptide, EBV-infected humanized B-NDG mice	20 mg/kg, day 14	–	body weight	23.5 g and 22.4 g
ESLSLSLSLSLSLEGTVFTSWEEYLDWV	–	AFM	peptide, dried on mica	0.1 wt%	–	nanofiber height	2.2 ± 0.2 nm
GPSQPTYPGDDAAVEDLIRFYDNLQQYLNVVTRHRY	–	CD thermal denaturation	peptide, sodium phosphate buffer with NaCl	30 µM, pH 7.4	–	melting temperature	49.5 ± 2 °C
Polymyxin B	–	untargeted LC-MS metabolomics, refers to: carnosine	Sprague-Dawley rat, right cerebral cortex	intracerebroventricular, 0.75 mg/kg, 1 h	baseline: NaCl control	log2 fold change	-4.7
GSGAGPETLV	human MAGI1-3/6 PDZ construct (MBP fusion)	automated holdup	peptide, purified PDZ protein	concentration not given, unit not given	baseline: biotin control resin, higher = stronger binding	binding intensity	0.472
VEALLNLKALE	–	LC-MS	peptide, 100 mM Na2HPO4	pH 7.4, 37 °C	–	cleavage half-life	692 days
caspofungin	–	–	adult ICU patients, mITT, serum	dose not given, day 30	–	magnesium	0.8 mmol/L
B2	–	oxidative folding, RP-HPLC	0.1 M NH4HCO3 with isopropanol	0.1 mg/mL, pH 8.5, room temperature, added: 0.4 mM GSSG, 2 mM GSH	–	conversion to native product	70% and 69%
coproporphyrin III	–	–	healthy human volunteers, spot urine	dose not given, pre-dose, median, added: ezetimibe plus rifampin	–	urine concentration	6.7 nM
colistin	Escherichia coli	broth microdilution	clinical isolate RKI-No 6 A-6	–	–	MIC	8 µg/mL
abaloparatide	–	–	fracture-bearing mice, fractured femur	40 nmol/kg	–	half-life at fracture site	0.367 days
FNA / CGLSGLGVA-NH2 ([18F]FNA-labelled, C-amide)	–	ex vivo gamma counting	peptide, healthy mouse, blood	60 min post injection	–	tissue uptake	0.87 %ID/g

Excerpt of the above:
Molecule	target or system	assay	system	setting	how to read	quantity	result
Teicoplanin	–	UPLC-MS/MS	critically ill haematology patients, serum	dose not given	–	highest total concentration	98.5 mg/L
KTKEGVVHGVATVA	–	far-UV circular dichroism, refers to: α-helices	peptide, PBS	10 µM, pH 7.4, 25 °C	–	secondary structure content	0%
coproporphyrin I	–	–	human, plasma	concentration not given, control day	–	lowest mean plasma concentration	0.653 ± 0.041 nM
CTOP	–	RP-HPLC	HALO C18 column	25 µM, acetic acid/methanol, 25 min gradient	–	retention time	12.1 min
